Published values from different studies.
Each numbered part is a random draw from the data of one study; scales do not carry over between parts.

Set 1 — method: RNA Bind-n-Seq; form: RNA; sample: in vitro; tested at: 200 nM; setting: whole 134-nt RNA, ends assumed; added: 150 mM LiCl; baseline: input library; reading: higher = stronger binding; each molecule: 7-deaza-guanosine replaces G
Target: Ras GTPase-activating protein-binding protein 1, full length (G3BP1, Homo sapiens, UniProt Q13283)
Sequence of UniProt Q13283 (whole entry, looked up): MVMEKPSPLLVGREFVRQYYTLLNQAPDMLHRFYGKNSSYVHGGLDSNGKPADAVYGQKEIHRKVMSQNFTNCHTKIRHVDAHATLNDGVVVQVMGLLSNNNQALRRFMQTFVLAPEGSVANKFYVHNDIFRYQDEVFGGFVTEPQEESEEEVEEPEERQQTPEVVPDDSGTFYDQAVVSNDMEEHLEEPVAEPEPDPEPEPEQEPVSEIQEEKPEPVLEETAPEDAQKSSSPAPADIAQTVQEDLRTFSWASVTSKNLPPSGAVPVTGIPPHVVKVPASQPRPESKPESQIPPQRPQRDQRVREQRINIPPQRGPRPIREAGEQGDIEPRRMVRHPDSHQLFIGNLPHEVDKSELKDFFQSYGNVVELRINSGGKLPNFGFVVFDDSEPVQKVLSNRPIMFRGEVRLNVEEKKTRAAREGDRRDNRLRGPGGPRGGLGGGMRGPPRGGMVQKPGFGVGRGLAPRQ
Shared flanks, not repeated: GGGAGUUCUACAGUCCGACGAUC … UGGAAUUCUCGGGUGUCAAGG
| Oligonucleotide | log2 enrichment |
| --- | --- |
| CCUCAAGUCCUGUGCUACACAUCGUAUGUACCGAAUCGGGAGGGUGGGUGGGAAAGUAUUAUGUUACGCCGUUCGGAUCUGCACUUCCAG | -0.486 |
| AAGUCCUGUGCUACACAUCGUAUGUACCGAAUCGGAAAAAAAGGAAAGGUUUUUGGAAAGUAUUAUGUUACGCCGUUCGGAUCUGCACUU | -1.9 |
| CUGUGCUACACAUCGUAUGUACCGAAUCGGGGUUUUUUUGGGGAAAAAGGGGAAAAAGGGGAAAGUAUUAUGUUACGCCGUUCGGAUCUG | -0.513 |
| CUGUGCUACACAUCGUAUGUACCGAAUCGGGGUUUGGGGAAAAAAAGGGGAAAAAAAGGGGAAAGUAUUAUGUUACGCCGUUCGGAUCUG | 0.617 |
| UCCUGUGCUACACAUCGUAUGUACCGAAUCGGGUUUGGGUUUUUUUGGGAAAAAAAGGGAAAGUAUUAUGUUACGCCGUUCGGAUCUGCA | -0.285 |
| GCAGGAAGUAAAAACAAAUGGAAAUGCUUCGGAUAGUGGCAGGGGUGGGGGUUGCUAAGGAAAGGGUGGGAUGGGAGUGGGUAAAAAAUU | -0.099 |
| CAAGUCCUGUGCUACACAUCGUAUGUACCGAAUCGGGGCCCGGGGCCCGGCCCGGAAAGUAUUAUGUUACGCCGUUCGGAUCUGCACUUC | -1.38 |
| UCCUGUGCUACACAUCGUAUGUACCGAAUCGGGAAAAAGGGAAAAAAAGGGAAAAAGGGAAAGUAUUAUGUUACGCCGUUCGGAUCUGCA | 0.436 |
| GCAGGAAGUAAAAACAAAUGGAAAUGCUUCGGAUAGUGGCAGGGGUGGGGGUUGCUAAGGAAAGGGUGGGAUGGGAGUGGAUAAAGAGUU | -0.0535 |
| UAACUUUAGAGGAGGAUCUGAUGGAUAUGGCAGUGGACGUGGAUUUGGGGAUGGCUAUAAUGGAUAUGGAGGAGGACCUGGAGGUGGCAA | 0.244 |
| GUCCUGUGCUACACAUCGUAUGUACCGAAUCGUGUGUGUGUGUGUGUGUGUGUGUGUGAAAGUAUUAUGUUACGCCGUUCGGAUCUGCAC | -0.798 |

Set 2 — method: competition protein-binding microarray; form: double-stranded DNA, one strand shown; sample: in vitro; tested at: 2 µM; added: Pho4 competitor, 0.05 µM; reading: higher = stronger binding; shared flanks, not repeated: … GTCTTGATTCGCTTGACGCTGCTG
Target: Centromere-binding protein 1, full length, His-tagged (CBF1, Saccharomyces cerevisiae, UniProt P17106, residues 1-351)
Sequence of UniProt P17106 (whole entry, looked up): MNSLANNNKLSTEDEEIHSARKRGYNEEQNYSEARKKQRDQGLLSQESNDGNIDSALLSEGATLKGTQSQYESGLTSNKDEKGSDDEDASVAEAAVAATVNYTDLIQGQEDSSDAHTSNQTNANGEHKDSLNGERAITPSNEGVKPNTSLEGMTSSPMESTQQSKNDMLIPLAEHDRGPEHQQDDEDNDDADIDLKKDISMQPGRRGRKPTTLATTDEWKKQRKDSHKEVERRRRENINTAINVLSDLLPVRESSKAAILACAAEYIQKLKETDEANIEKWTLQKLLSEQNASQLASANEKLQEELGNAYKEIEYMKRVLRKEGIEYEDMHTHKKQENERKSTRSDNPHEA
Setting: whole 60-bp probe, lowest competitor level
| Oligonucleotide | fluorescence intensity |
| --- | --- |
| TCAAAAAAGCCAAAAAGGGTGTGCCTGTAGATTGTG | 63.1 a.u. |
| GGTTTACCGGAATGTCAGGTGATAGCAGCGGAGGGT | 654 a.u. |
| CCTAGAGAGCGGCACCACGCGGACTCGACGGCCGCG | 53.7 a.u. |
| GTCTTATGTGGGTTAAACGTGGGACGAGAACTATAA | 88.8 a.u. |
| AAATTACTAAGTTGTCACCGGACTTACCCCGTATGA | 85.7 a.u. |
| GTCTTGTCTCATTGCTTGGTGGGTGTCCCCACTTCA | 68.3 a.u. |
| CCATTAAAAATAATATGTGTGATATTCTTCCACACG | 128 a.u. |
| CGTCCTAGTGATTGCTGAGTGGGTGCCATGAGGAAG | 73.1 a.u. |
| CGGGGTTAAGTTTGACCCGTGGGTGGCTTGCAGCAG | 81.8 a.u. |
| CCAATTAACCAAAGCCACGTGGATTTGTCATCAGAG | 1000 a.u. |
| GACATCTGGCGTAGTCACCTGTCAGAGAAATCGCGG | 509 a.u. |
| GTCTTGTCTCATTGGTGAGTGGGTGTCCCCACTTCA | 70.7 a.u. |
| AAAGCGGTAATTTGTGATGTGGGTGCAGATATCTAT | 74.7 a.u. |
| GTCTTGTCTCATTGCCACGTGGGTGTCCCCACTTCA | 741 a.u. |
| CGCTCGTCTTGGTGGCATGCGCTTTTTTTTTCTTGG | 84.5 a.u. |
| TGAGGGTTATCCAAGCGCATGACAATAAATGAGCGG | 190 a.u. |
| AAAGCGGTAATTTTTCACGTGCGGTCAAATATCTAT | 1360 a.u. |
| TGGTAGTAACCAAAGCACGCTTGTCCTTGTGTTCGG | 63.8 a.u. |
| TGTGAGGAACAAGCCCACATGTTGAGTTTAAGATGG | 106 a.u. |
| GACCAGCCGCACCGTCACGTGACGGTATACGATCCT | 15400 a.u. |
| CTTCTGTAAATTTGGGGGGTGGGTGGACGCGCCCCG | 103 a.u. |
| CTGTCCAGCGCAGACCACGTGGCCCTTCCTGGTGCT | 2120 a.u. |

Set 3 — method: RNA Bind-n-Seq; form: RNA; sample: in vitro; tested at: 365 nM; baseline: no-protein control; reading: higher = stronger binding
Target: RNA binding protein fox-1 homolog 2, RRM domain, GST-SBP tag (RBFOX2, Homo sapiens, UniProt O43251-10, residues 100-194)
Setting: natural RNA segment, single round, ends assumed
Shared flanks, not repeated: GGGAGUUCUACAGUCCGACGAUC … UGGAAUUCUCGGGUGCCAA
Construct (chain): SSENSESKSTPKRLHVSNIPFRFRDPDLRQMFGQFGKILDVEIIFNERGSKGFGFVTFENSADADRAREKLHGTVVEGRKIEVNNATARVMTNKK
| Oligonucleotide | RBNS enrichment (R) |
| --- | --- |
| ACAACCCAGGCGUCAGAAGCCUGUUUCUUACUGUCUCCCCAGAGACUCAAGUGUCUUCUGCUCCCAAGGGAGUUCCUUCCUGCUUGUUUGUUUGAAUGUUGAUUUUUUUU | 9.47 |
| GAAAUUGACAGAUUUGGUGAAUAACUUUUCCAUACUAUUCCUGCUUUUCCCAUCCACUGAAACAGCCUGUUGUAGCAAGAGGCUUUCAAGAGUGCAGUGGAGUUGCGCUG | 0.299 |
| UCUUAGCUUAUUGUGACUGUUUCAGAUCUAGUUUGGGAACAGAUUAGAGGCCAUUGUCUUCUGUCCUGAUCAGGUGGCCUGGCUGUUUCUUUGGAUCCCUCUGUCCCAGA | 0.291 |
| CCUUAAUAUUGCAUCUCACUCCCACCCUUAAAACCACAGAUUGCAAAGCAUAGCAUUUUAGCAUCAACUACAAUCAAAAGAGCGAUUUGCUGAAGGAAAAAUCGGACUGC | 0.774 |
| UGCUAGAGUUGUGGUGGCAGGGGCCCUGGCCCCGUCUCAGGAUUGCGCUCGCUUUCAUGGGACCAGACGUGAUGCUGGAAGGUGGGCGUCGUCACGGUUAAAGAGAAAUG | 0.487 |
| UCAUCAAAUCUCCAAACUCUUAAAGGAUGCUUUCGGAAAACACGCUGUAUACCUAGAUGAUGACUAAAUGCAAAAUCCUUGGGCUUUGGUUUUUUUCUAGUAAGGAUUUU | 0.383 |
| AGGGUAUAACACAUGCUCCGAGGUGGGUGUGUCUCUGACCAUCUCAAGCACCCUAUCUUGUGUCCCUCACAAACAAGCUCUUGUCACUUCUUACCGAGUCCAUAGCUUCA | 0.47 |
| CCCCUCCCAGUCCCUGUUGGCUUUCGGUAGCUCUCGCAUGCAGUUCUAUUAACAGCCGUCUAGAAGCGAUGCUUUAGUGGCCUAACCCAGGGUCAAAUACAGCUCUUUCU | 12.2 |
| GCCUGAGGAGCCCAGAGCACUUGACUGAGCUUCCCGGAAACUGGCCCUAACCUGUCUGUCUCCGUGGAUGCAUCCUAACCCUAAGGAAAAUUCCCCAGGCUGUGAUCUAC | 0.352 |
| UUUCUGUUAAUAUAUAGAAAAAUACACAGGAGAACAUGCAGAUACAUGUAAAUAUCUACAUACAGGGAUAUUUGUAUGUGUGGUUGUGAAACCCAUACACAAGUGGAUUU | 0.308 |
| AAAAAAAAAGUUCAAGAUAAUUAAGAGUUGCCAGCUCGUUAAAGCUAAGUAGAAGCAGUCUCAGGCCUGCUGCUUGAGGCUGUUCUUGGCUUGGACCUGAAAUCUGCCCC | 0.459 |
| UGAGACAAACUGAAAAUUAUUGCAAGCAUUGACUAUAAUUAUGCAGUACGUUCUCAGGAUGCAUCCAGGGGUUCAUUUUCAUGAGCCUGUCCAGGUUAGUUUACUCCUGA | 1.96 |

Set 4 — method: RNAcompete; form: RNA; sample: in vitro; tested at: 20 nM; setting: 7-mer, probes averaged, single round; baseline: mean of 7-mers; reading: higher = stronger binding
Target: PABPC1L2, full length, GST fusion (mouse, UniProt A0ABA7IW68)
Residues (chain): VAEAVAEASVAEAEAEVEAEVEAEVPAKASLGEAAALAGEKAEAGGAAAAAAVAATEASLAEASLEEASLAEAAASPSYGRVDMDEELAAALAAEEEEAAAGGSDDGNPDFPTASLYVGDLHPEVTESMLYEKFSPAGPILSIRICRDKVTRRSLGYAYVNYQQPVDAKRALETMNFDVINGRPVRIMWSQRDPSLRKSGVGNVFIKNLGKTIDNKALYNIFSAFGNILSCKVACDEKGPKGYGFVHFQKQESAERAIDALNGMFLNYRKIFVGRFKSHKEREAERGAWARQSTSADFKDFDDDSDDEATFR
| Oligonucleotide | 7-mer Z-score |
| --- | --- |
| CGACGAU | 0.0859 |
| UGUGCGC | -0.103 |
| UCAGAAC | -0.151 |
| AAUAACC | 0.187 |
| UACACGU | -0.235 |
| CAAUUAU | -0.0736 |
| UAUCACU | -0.144 |
| CACUCGU | -0.325 |
| GAGUGUC | -0.242 |
| AUACACG | 0.066 |
| CCCACGA | -0.26 |
| UCUUGUG | -0.425 |
| GAAAGCG | 0.494 |
| GAGUGGG | 0.0696 |
| UAAGAGG | 0.18 |
| CGCCUGC | -0.391 |
| CGGCUAG | -0.148 |
| CUUACUU | -0.278 |
| UUUGAGA | 0.00979 |
| UUGGUGA | -0.0391 |
| UCCGUCU | -0.367 |
| CGUUAAA | 0.216 |
| GUGUCCC | -0.331 |
| GAACACG | 0.0605 |

A few entries again (set 3):
| Oligonucleotide | RBNS enrichment (R) |
| --- | --- |
| UCUUAGCUUAUUGUGACUGUUUCAGAUCUAGUUUGGGAACAGAUUAGAGGCCAUUGUCUUCUGUCCUGAUCAGGUGGCCUGGCUGUUUCUUUGGAUCCCUCUGUCCCAGA | 0.291 |
| CCUUAAUAUUGCAUCUCACUCCCACCCUUAAAACCACAGAUUGCAAAGCAUAGCAUUUUAGCAUCAACUACAAUCAAAAGAGCGAUUUGCUGAAGGAAAAAUCGGACUGC | 0.774 |
| UGCUAGAGUUGUGGUGGCAGGGGCCCUGGCCCCGUCUCAGGAUUGCGCUCGCUUUCAUGGGACCAGACGUGAUGCUGGAAGGUGGGCGUCGUCACGGUUAAAGAGAAAUG | 0.487 |
| UCAUCAAAUCUCCAAACUCUUAAAGGAUGCUUUCGGAAAACACGCUGUAUACCUAGAUGAUGACUAAAUGCAAAAUCCUUGGGCUUUGGUUUUUUUCUAGUAAGGAUUUU | 0.383 |
| AGGGUAUAACACAUGCUCCGAGGUGGGUGUGUCUCUGACCAUCUCAAGCACCCUAUCUUGUGUCCCUCACAAACAAGCUCUUGUCACUUCUUACCGAGUCCAUAGCUUCA | 0.47 |
| CCCCUCCCAGUCCCUGUUGGCUUUCGGUAGCUCUCGCAUGCAGUUCUAUUAACAGCCGUCUAGAAGCGAUGCUUUAGUGGCCUAACCCAGGGUCAAAUACAGCUCUUUCU | 12.2 |
